Assay results pooled from the literature.
Lines come from different studies, so protocols differ.
ULK3: Serine/threonine-protein kinase ULK3 (ULK3, Homo sapiens, UniProt Q6PHR2)
TDP1: Tyrosyl-DNA phosphodiesterase 1 (TDP1, Homo sapiens, UniProt Q9NUW8)
UniProt Q9NUW8, sequence (whole entry, looked up): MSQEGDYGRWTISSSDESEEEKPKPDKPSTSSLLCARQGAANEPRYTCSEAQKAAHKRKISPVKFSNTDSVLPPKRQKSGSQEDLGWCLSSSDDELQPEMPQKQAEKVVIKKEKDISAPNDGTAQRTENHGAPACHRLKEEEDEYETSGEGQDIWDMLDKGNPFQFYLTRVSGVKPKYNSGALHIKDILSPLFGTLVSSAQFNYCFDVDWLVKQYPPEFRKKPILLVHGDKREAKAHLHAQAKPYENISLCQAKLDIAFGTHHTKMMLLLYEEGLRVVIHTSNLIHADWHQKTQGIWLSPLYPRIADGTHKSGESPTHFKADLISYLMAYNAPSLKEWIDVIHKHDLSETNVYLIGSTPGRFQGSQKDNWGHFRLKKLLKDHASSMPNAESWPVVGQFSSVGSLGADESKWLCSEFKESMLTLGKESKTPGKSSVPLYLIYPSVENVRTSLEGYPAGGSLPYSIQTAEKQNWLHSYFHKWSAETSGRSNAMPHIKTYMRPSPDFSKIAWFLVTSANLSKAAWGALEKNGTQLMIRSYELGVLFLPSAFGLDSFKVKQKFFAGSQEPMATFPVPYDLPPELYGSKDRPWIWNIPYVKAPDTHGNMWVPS

| Structure (SMILES) | target | assay | system | setting | scale | endpoint | result |
| --- | --- | --- | --- | --- | --- | --- | --- |
| CCN1CCN(Cc2ccc(C(=O)Nc3ccc(C)c(NCc4cnc5[nH]ccc5c4OC)c3)cc2C(F)(F)F)CC1 | ULK3 | binding, competition with immobilised ligand |  | 1 µM |  | remaining binding | 71% |
| COc1c(Cl)cccc1Nc1c(-c2ccncc2C#C[C@@]2(C)CCCN2C(=O)/C=C/CN(C)C)[nH]c2c1C(=O)NCC2 | ULK3 | binding, competition with immobilised ligand |  | 3 µM |  | remaining binding | 92% |
| C=CC(=O)N1Cc2nc(-c3cc(-c4cc(Cl)cnc4Cl)c(F)cc3F)n(-c3ccncn3)c2C1 | ULK3 | cell-free assay, inhibitor |  | 1 µM |  | inhibition | 1% |
| CNC(=O)C[C@H](Cc1ccc(C#N)cc1)NC(=O)c1cc(-c2ccc(CN[C@H](C)c3ccc(C)cc3)o2)ccc1Cl | ULK3 | enzyme activity, inhibitor |  | 1 µM |  | activity vs control | 99% |
| O=C(O)c1ccc(Nc2c(-c3ccccc3)nc3ccc(CON=Cc4sccc4Oc4ccccc4)cn23)cc1 | TDP1 | enzyme activity, inhibitor |  | 100 µM, unpurified compound |  | inhibition | 93.3% |
| COc1c(OCCCN2CCOCC2)ccc2c1N=C(NC(=O)c1cnc(N)nc1)N1CCN=C21 | ULK3 | kinase activity, inhibitor |  | 1 µM | reference: untreated control | remaining activity | 96% |
| Cc1cnc2nc1Nc1cccc(c1)COC/C=C/COCc1cc(ccc1OCCN1CCOCC1)N2 | ULK3 | cell-free assay |  | 0.1 µM |  | remaining signal | 99% |
| O=C(O)c1ccc(Nc2c(-c3ccccc3)nc3ccc(CON=Cc4ccc(N5CCCC5=O)cc4)cn23)cc1 | TDP1 | enzyme activity, inhibitor |  | 100 µM, unpurified compound |  | inhibition | 45.5% |
| Cc1ccc(-c2c(/C=C(\C#N)C(=O)NC(C)C)n(CCCO)c3ncnc(N)c23)cc1 | ULK3 | cell-free assay, competition with immobilised ligand |  | 1 µM |  | remaining binding | 93% |
| CC(C)=CC1OC(C)(C)C2C=C3C(=O)C(Cl)=CC(O)C3C3C(O)C4OC4C(=O)C132 (stereo not shown) | ULK3 | cell-free assay, competition with immobilised ligand |  | 10 µM |  | remaining binding | 63% |
| C=CC(=O)N1CCc2ccc(-n3c(=O)ccc4cnc5ccc(-c6cnn(C)c6)cc5c43)cc21 | ULK3 | KINOMEscan |  | 1 µM | reference: DMSO control | remaining binding | 91% |
| CCN1CCN(Cc2ccc(NC(=O)c3ccc(C)c(NC(=O)c4cncc(-c5cnn(C)c5)c4)c3)cc2C(F)(F)F)CC1 | ULK3 | binding, competition with immobilised ligand |  | 1 µM |  | remaining binding | 14% |
| COc1cc(Nc2nc(C)cc(-c3cnn4nc(OC)ccc34)n2)cc(C(F)(F)F)c1 | ULK3 | binding, competition with immobilised ligand |  | 1 µM |  | remaining binding | 79% |
| Cc1ccc(C(=O)Nc2ccc(CN3CCN(C)CC3)c(C(F)(F)F)c2)cc1C#Cc1cnc2cccnn12 | ULK3 | target engagement, NanoBRET | human cells |  |  | Hill slope | 1.11 |
| NC(=O)C[C@H]1CCc2sc3ncnc(O[C@H]4CC[C@H](N5CCOCC5)CC4)c3c21 | ULK3 | enzyme activity, inhibitor |  | 10 µM |  | inhibition | 2% |
| O=C=[N][Ru-4]123([n]4c5ccc(O)cc5c5c6c(c7cc(F)c[n+]1c7c54)C(=O)NC6=O)[S+]1CC[S+]2CC[S+]3CC1 (stereo not shown) | ULK3 | enzyme activity |  | 100 nM, human enzyme, with: 10 µM ATP | reference: untreated | remaining activity | 109% |
